Measurements gathered from unrelated publications.
Parts stem from different laboratories: compare values within a part only.

Sample 1 — method: RNA Bind-n-Seq; form: RNA; medium: in vitro; tested at: 365 nM; relative to: no-protein control; direction: higher = stronger binding
Target: RNA binding protein fox-1 homolog 2, RRM domain, GST-SBP tag (RBFOX2, Homo sapiens, UniProt O43251-10, residues 100-194)
Notes: natural RNA segment, single round, ends assumed
All sequences stand within: GGGAGUUCUACAGUCCGACGAUC … UGGAAUUCUCGGGUGCCAA
Residues (chain): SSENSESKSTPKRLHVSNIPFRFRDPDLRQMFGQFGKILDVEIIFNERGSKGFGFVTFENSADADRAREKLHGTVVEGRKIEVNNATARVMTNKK
Sequence	RBNS enrichment (R)
AUUAAUCGUUUUAUUUGAGUAGGUAAACAAAUUUGCACACUUUUCCCCAGUGAAUUCCCAACACCUUGACUUCCUCAUUUCAGUGCUAAUAACCUGUUUUGUGUGCAGUU	0.374
CCCACCCCCAAUCCAAAAGGUUCAGAGUCCCCCGAGAUGACACUUCCUCCAGCAUAACCCCAGUUGGCUGACGUGAGCCUAUUCCAUCUGAGGCCAUUCUCUCUUUGGUU	0.479
UACCACCUCACCUUGUUGGUACCUCCCUCCCUGGAUCUCUGAGCCAGCAGCCAGGAGGACCUGACCCAGCAGUUCUUUACUGGCCCCUUUGUAGGGCCUUGCUGCCAGGG	0.368
UUUAUUUUUAUUUAAAUGUCAAUAGUUGUUUUUUAAAAUCCAAAUCAGAGGUGCAGGCCACCAGUUAAAUGCCGUCUAUCAGGUUUUGUGCCUUAAGAGACUACAGAGUC	0.687
CCUGACUUCCCUCAGGAAGUCUUUCUGUCUUUCUCCAUCAGUCUGAAAGCCUUAGUUCCCACAGAGGACGGAUCUGUCACUCCUAGGGGCUGGGCAUAUGUCGGCCUCUU	0.188
CUAAAUUAGCAUCAAUACUUUGACAUUCAUUACAUUGGUUUGGGGGAAGAAAAGUAGUUCUGGUAUGUUUCAUUGAUCCCCAGAUACCUUCCAAUCUGGACAUGAUGGGG	1.4
GCAAUUACGUCAUCACCCAGCUGAUUCCGGGUGGUUGGCAAACUCAUCGUGUCUGUCCUGAGAGGCUCCACAAUGCCCACCCGCAUCGCCAUUCUGUAGUCUUCAGGGUC	0.397
GCAAAAUGCUCAACUGUCAGCCCCGCAAGUAGACAGCUGUGUGCCGGACACCACCUAGCUGCAGCAAACAUCUGGCCAGCAGCAGCUUUCAAUAAAUCUACAGCAAACAA	0.336

Sample 2 — method: protein binding microarray; form: double-stranded DNA, one strand shown; medium: in vitro; tested at: not given; relative to: not given; direction: higher = stronger binding
Target: Histone acetyltransferase KAT6A, winged helix 1, GST fusion (KAT6A, Homo sapiens, UniProt Q92794, residues 1-85)
Notes: 8-mer, flanks averaged, mean of 2 arrays, mostly near background
Residues (chain): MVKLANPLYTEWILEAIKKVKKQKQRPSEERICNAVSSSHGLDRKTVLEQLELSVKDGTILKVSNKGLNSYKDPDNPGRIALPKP
Sequence	E-score
AGTGTTTG	-0.141
CAAGGGGG	-0.021
AGCACATA	-0.138
GCTACGTA	0.0614
ATGAGAAG	-0.165
TATTTTAA	-0.157
CATCATAG	-0.21
GCCCCACC	0.0403
CCAACTGC	0.0806
GCCCAGGC	-0.02
GGGCTCGA	0.0672
GGCGTGAC	0.121
GCCCTGGA	-0.0845
AGTTCCTG	-0.208
GCGGGCGA	0.378
CATAAGGA	-0.215
CTCCGCAG	0.0535
CCCGTAGC	0.353
ATCGACGA	-0.0654
GCATTCCA	0.0117
CAGAGAAC	-0.109
GCCTAAAA	-0.169
GGAATATA	-0.0326

Sample 3 — method: protein-binding microarray; form: double-stranded DNA, one strand shown; medium: in vitro; tested at: 940 nM top; notes: 60-bp whole probe; together with: salmon DNA 0.4 mg/ml; relative to: random background probes; direction: higher = stronger binding; all sequences stand within: GCCTAGCAC … GTCTTGATTCGCTTGACGCTGCTG
Target: Interferon regulatory factor 5, full length, phosphomimetic (IRF5, Homo sapiens, UniProt Q13568-2, residues 1-514, S451D/S453D/S456D/S462D)
Sequence	fitted relative affinity [z-score]
TTAGGACAGCTTATCCTTTAGTGCTAG	-0.229
CAACCTATAGGTTCAACGACGTGCTAG	-0.267
TCAGTTCCCTATATAAGACTGTGCTAG	0.5
TTAGGTATCGGGATCGGTTAGTGCTAG	5.01
TTAGGACTGGGGTAACGGTTAGTGCTA	-0.17
AACGATATCAGACTGGAGACGTGCTAG	-0.121
TTAGGTATCGACTATGGGTTAGTGCTA	5.91
TACGGTATCGGGACTGGGGACGTGCTA	2.66
TTAGGACTGGGGTAGCGGTTAGTGCTA	-0.0295
TCCAACCTGCTGAATCAAAAGTGCTAG	-0.00749
TTAGGACTGGGGACTGGGTTTGTGCTA	-0.355
GACGGTATCGGGACTGGGGTCGTGCTA	4.08
GACGCTATCGACACTGGGGACGTGCTA	0.395
TTAGGACTGGGAGTGGGTTAGTGCTAG	-0.293
GACGGTATACTTATCCTGACGTGCTAG	-0.282
TTAGGTTTCGGTTCCGGTTGGTGCTAG	14.3
GACGATTTCGAGTTTCGAGACGTGCTA	2.93
TTAGGACTGCTACTGCCTTAGTGCTAG	-0.213
TTAGGTTTCGGGTATCGGCTAGTGCTA	11.3

Sample 4 — method: universal PBM; form: double-stranded DNA, one strand shown; medium: in vitro; tested at: not given; direction: higher = stronger binding
Target: Sal-like protein 4, full length isoform B (SALL4, Homo sapiens, UniProt Q9UJQ4-2, residues 1-616)
Notes: 8-mer, flanks averaged, mean of replicates
Sequence	E-score
AAACGAAA	0.12
ATGAGATC	0.146
CTGATAAC	0.145
ACAATTGT	0.235
AAAGAACC	-0.0484
GGACTTAA	-0.0462
CCCCGTCG	-0.346
GGCTTAAC	-0.0387
ACTAGCGC	-0.155
GCGGAGGA	-0.21
CAGCAGAC	-0.142
CGGTAGAC	-0.0659
GCGTCATA	0.26
GACCAACC	-0.227
ATCAAAAT	0.227
CCACTGAG	-0.267
TACAAGAA	0.175
TCACACAA	0.144
ATCAGTCA	0.0146
AGGGCGCC	-0.28
CAGGATTC	0.0721
TAGTACTA	0.166
CCCAGAAC	-0.138
GCCTCAAA	-0.189
ACCTTCAG	-0.00279
